Experimental data of several laboratories.
Protocols differ between the studies behind these lines. pEC50, pIC50: −log10 of the molar value.
Cell line: Jurkat

Structure (SMILES) | test | setting | scale | endpoint | value
C1=CCCC=CCC1.F[P-](F)(F)(F)(F)F.[Pt+][c]1ccccc1P(=Nc1ccccc1)(c1ccccc1)c1ccccc1 |  | concentration not given, 24 h |  | cells with decreased ΔΨm | 80%
Cc1[nH][n+]([Pt-2]([Cl])([n+]2[nH]c(C)c(CSCc3ccccc3)c2C)[n+]2[nH]c(C)c(CSCc3ccccc3)c2C)c(C)c1CSCc1ccccc1.[Cl-] | annexin V/7-AAD flow cytometry | 1.5 µM |  | apoptotic cells | 37.6%
NCCCC[C@H](NC(=O)[C@H](CCCCN)NC(=O)[C@@H](N)CCCCN)C(=O)NCC(=O)NCC(=O)NCCCCCCCCNC(=O)COc1ccc(-c2ccccn2)cc1 | confocal microscopy | 10 µM, 1 h, 4 |  | LysoTracker Red and ER-RFP emission | decreased
C=C/C(=C/CC[C@H](C)C[C@@H](C)CC[C@H](O)[C@H](C)C(=O)CC(O)[C@H](C)[C@@H](C)OC(=O)C[C@@H](O)C1=C(C)C(=O)OC1=O)CC (stereo partly drawn) | IL-2 production | 20 µM, 24 h, together with: anti-CD3/anti-CD28 antibodies |  | inhibition | 98%
CC(=O)N[C@@H](Cc1cccnc1)C(=O)N[C@@H](CC(=O)O)C(=O)N[C@@H](Cc1c(F)c(F)c(F)c(F)c1F)C(=O)N[C@@H](Cc1ccccc1)C(=O)N[C@@H](CC(=O)O)C(=O)COC(=O)c1ccc(C)s1 | cell death, apoptosis inhibitor, CellTiter-Glo viability | 30 min pretreatment, up to, together with: MegaFasL 10 ng/mL |  | highest concentration without protection | > 100 µM
O=C1c2cccc3cccc(c23)C12NC(Cc1ccc(O)cc1)C([N+](=O)[O-])C2c1ccc(Cl)cc1 (stereo not drawn) | cell growth or viability, MTT | 48 h |  | pIC50 | 4.42
Cc1ccc(C(C)C)cc1.[Cl-].[Cl-].[Ru+2].c1ccc(P(=Nc2cccc3cccnc23)(c2ccccc2)c2ccccc2)cc1 | flow cytometry | concentration not given, together with: z-VAD-fmk 50 µM |  | cells with ΔΨm loss | 20%
C(=C/c1ccccc1)/c1ccccc1 | apoptosis, Hoechst nuclear staining | 24 h |  | pEC50 | 4.30
CC(C)C[C@@H]1NC(=O)[C@H](CC(C)C)NC(=O)[C@H](Cc2ccccc2)NC(=O)[C@@H]2CSSC[C@@H](C(=O)O)NC(=O)[C@H](CSSC[C@H](N)C(=O)N3CCC[C@H]3C(=O)N2)NC(=O)CNC1=O | inhibitor | concentration not given, together with: von Willebrand factor |  | cell adhesion | inhibited
C=C/C(=C/C(=O)C[C@H](C)C[C@@H](C)CC[C@H](O)[C@H](C)C(=O)CC(O)[C@H](C)[C@@H](C)OC(=O)CCC1=C(C)C(=O)OC1=O)CC (stereo partly drawn) | IL-2 production | 20 µM, 24 h, together with: anti-CD3/anti-CD28 antibodies |  | inhibition | 98%
Cc1ccc(C(C)C)cc1.O=C(N=P(c1ccccc1)(c1ccccc1)c1ccccc1)c1ccccn1.[Cl-].[Cl-].[Ru+2] | MTT |  | reference: IC50 RPTC over IC50 Jurkat | selectivity ratio | 17.7 fold
O=C1c2cccc3cccc(c23)C12NC(Cc1ccc(O)cc1)C([N+](=O)[O-])C2c1ccccc1 (stereo not drawn) | annexin V-FITC/PI flow cytometry | IC50, 24 h |  | apoptotic cells | > 89%

A few entries again:
Structure (SMILES) | test | setting | scale | endpoint | value
CC(C)C[C@@H]1NC(=O)[C@H](CC(C)C)NC(=O)[C@H](Cc2ccccc2)NC(=O)[C@@H]2CSSC[C@@H](C(=O)O)NC(=O)[C@H](CSSC[C@H](N)C(=O)N3CCC[C@H]3C(=O)N2)NC(=O)CNC1=O | inhibitor | concentration not given, together with: von Willebrand factor |  | cell adhesion | inhibited
C=C/C(=C/C(=O)C[C@H](C)C[C@@H](C)CC[C@H](O)[C@H](C)C(=O)CC(O)[C@H](C)[C@@H](C)OC(=O)CCC1=C(C)C(=O)OC1=O)CC (stereo partly drawn) | IL-2 production | 20 µM, 24 h, together with: anti-CD3/anti-CD28 antibodies |  | inhibition | 98%
